Assay results of several laboratories.
Protocols differ between the studies behind these lines. ± marks the error that the study gave.

SMILES	cell line	test	setting	how to read	endpoint	value
Cc1[nH]c2cc(Cl)cc(Cl)c2c1CCN	SNU-1 (KRAS G12D)	cell viability, CellTiter-Glo	72 h	–	IC50	33 ± 1.6 µM
O=C(O)CC[C@H](NC(=O)N[C@@H](CCCCNC(=O)[C@H](Cc1ccc2ccccc2c1)NC(=O)[C@H]1CC[C@H](CNC(=O)CN2CCN(CC(=O)O)CCN(C(CCC(=O)NCCC[P+](c3ccccc3)(c3ccccc3)c3ccccc3)C(=O)O)CCN(CC(=O)O)CC2)CC1)C(=O)O)C(=O)O (stereo partly drawn) [terbium-161 labelled]	PC-3 PIP	–	concentration not given, efflux	–	cell retention of activity	76%
C/C1=C\CC[C@@]2(C)O[C@H]2[C@H]2OC(=O)C(C)[C@@H]2CC1 (stereo partly drawn)	NCI/ADR-RES	cell growth, inhibitor, Alamar blue	–	–	IC50	> 500 µM
C=CCc1cc2c(c(OC)c1OC)OCO2	HCT-116	cell growth or viability	72 h	–	GI50	> 250 µM
CC[C@H](C)[C@H](NC(=O)[C@H](CCCCN)NC(=O)[C@H](CCCCN)NC(=O)[C@H](C)NC(=O)[C@@H](NC(=O)[C@H](C)NC(=O)[C@H](CC(C)C)NC(=O)[C@H](CC(C)C)NC(=O)[C@H](C)NC(=O)[C@H](CCCCN)NC(=O)[C@H](CC(C)C)NC(=O)[C@H](CC(N)=O)NC(=O)[C@@H](N)CC(C)C)C(C)C)C(=O)N[C@@H](CC(C)C)C(N)=O	MDA-MB-435S	MTT	24 h	–	IC50	27.7 µM
Nc1ccc(/C=C/C(=O)N2CCc3c(oc4c(-c5ccc(F)cc5)cc(-c5ccc(C(=O)N6CCC(F)(F)CC6)cn5)cc34)C2)cn1	MIA PaCa-2	annexin V/PI flow cytometry	0.5 µM, 72 h	–	apoptotic cells	25.9%
O=C(O)CC[C@H](NC(=O)N[C@@H](CCCCNC(=O)[C@H](Cc1ccc2ccccc2c1)NC(=O)[C@H]1CC[C@H](CNC(=O)CNC(=O)CNC(=O)CNC(=O)CN2CCN(CC(=O)O)CCN(C(CCC(=O)NCCC[P+](c3ccccc3)(c3ccccc3)c3ccccc3)C(=O)O)CCN(CC(=O)O)CC2)CC1)C(=O)O)C(=O)O (stereo partly drawn) [terbium-161 labelled]	PC-3 PIP	–	–	reference: applied activity	mitochondrial uptake	5.4 ± 0.1%
CC[C@H](C)[C@@H]1NC(=O)[C@H](CCCCN)NC(=O)[C@H](CCCCN)NC(=O)[C@H](C)NC(=O)[C@H](C(C)C)NC(=O)[C@H](C)NC(=O)[C@H](CC(C)C)NC(=O)[C@H](CC(C)C)NC(=O)[C@H](C)NC(=O)[C@H](CCCCN)NC(=O)[C@H](CC(C)C)NC(=O)[C@H](CC(N)=O)NC(=O)[C@H](CC(C)C)NC(=O)[C@@H](N)CSSC[C@@H](C(N)=O)NC(=O)[C@H](CC(C)C)NC1=O	U251MG	MTT	24 h	–	IC50	8.56 µM
CC[C@H](C)[C@@H]1NC(=O)CNC(=O)[C@@H]2Cc3c([nH]c4ccccc34)SC[C@H](NC(=O)CNC1=O)C(=O)N[C@@H](CC(=O)NCc1cn(CCN)nn1)C(=O)N1C[C@H](O)C[C@H]1C(=O)N[C@@H]([C@@H](C)[C@@H](O)CO)C(=O)N2	CHO	cell growth or viability, MTS	72 h	–	EC50	~5 µM

For quick reference, copied from above:
SMILES	cell line	test	setting	how to read	endpoint	value
Cc1[nH]c2cc(Cl)cc(Cl)c2c1CCN	SNU-1 (KRAS G12D)	cell viability, CellTiter-Glo	72 h	–	IC50	33 ± 1.6 µM
